Published values gathered from unrelated publications.
A part holds a random share of what one study measured. Changes are numbered by the printed parent chain.

Set 1
Target: Histone acetyltransferase KAT6A, both winged helices, GST fusion (KAT6A, Homo sapiens, UniProt Q92794, residues 1-181)
Method: protein binding microarray
Form: double-stranded DNA, one strand shown
Matrix: in vitro
Concentration: not given
Notes: 8-mer, flanks averaged, mean of 2 arrays, mostly near background
Relative to: not given
Reading: higher = stronger binding
Target sequence (chain): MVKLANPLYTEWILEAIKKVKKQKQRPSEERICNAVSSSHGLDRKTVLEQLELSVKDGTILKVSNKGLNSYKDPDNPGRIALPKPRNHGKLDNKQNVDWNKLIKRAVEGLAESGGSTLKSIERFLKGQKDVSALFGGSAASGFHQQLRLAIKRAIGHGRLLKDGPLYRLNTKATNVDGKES
The E-score of `AGGCAGAG` is reported as -0.186.
The E-score of `ATCTAACA` is reported as -0.185.
`GGCCCTAA` has an E-score of -0.131.
The E-score of `GCGGCCAA` is reported as 0.2.
For `ATGATGTA`, the E-score was -0.0139.
`CACAAGTC` gave an E-score of -0.0583.
With `CCACATCA` the E-score was -0.163.
With `ATGATGAA` the E-score was -0.13.
`AGGCCCGC` has an E-score of 0.224.
The E-score of `TAGCCTCA` is reported as -0.238.
`ATATGTAC` has an E-score of 0.0563.

Set 2
Target: ABI1, truncated, D143A, DHFR fusion (Arabidopsis thaliana)
Method: DHFR PCA, deep sequencing
Matrix: yeast
Notes: methotrexate growth selection, single substitutions
Together with: (+)-ABA 2500 µM
Relative to: wild-type fitted maximum
Reading: higher = stronger binding
Parent: PYL1, truncated, DHFR fusion (Arabidopsis thaliana); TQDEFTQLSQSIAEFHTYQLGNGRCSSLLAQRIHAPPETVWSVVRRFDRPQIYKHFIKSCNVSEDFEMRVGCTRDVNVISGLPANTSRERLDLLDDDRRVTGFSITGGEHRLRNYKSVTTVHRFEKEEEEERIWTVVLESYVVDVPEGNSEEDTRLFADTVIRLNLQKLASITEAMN
`H55N` — result for “relative binding score”: 97.1%.
`S140E`: “relative binding score” 18.2%.
`V145E` — result for “relative binding score”: 71.6%.
`L94S`: “relative binding score” 91.7%.
`R74G`: “relative binding score” -4.28%.
For `G108V`, “relative binding score” read 60.1%.

Set 3
Target: Interferon regulatory factor 5, full length, phosphomimetic (IRF5, Homo sapiens, UniProt Q13568-2, residues 1-514, K96S/S451D/S453D/S456D/S462D)
Method: protein-binding microarray
Form: double-stranded DNA, one strand shown
Matrix: in vitro
Concentration: 250 nM
Notes: 60-bp whole probe
Together with: salmon DNA 0.4 mg/ml
Relative to: random background probes
Reading: higher = stronger binding
Shared flanks, not repeated: GCCTAGCAC … GTCTTGATTCGCTTGACGCTGCTG
For `CTTTAACTCATTTTCATTTTGTGCTAG`, the log fluorescence was 2.55 z-score.
`GTCTCTGTTCTTTTCAGTCCGTGCTAG` gave a log fluorescence of 1.12 z-score.
With `GACGGTATCGACGTTCGGGACGTGCTA` the log fluorescence was 1.51 z-score.
`GACGGTATCGACACGGGGGACGTGCTA` gave a log fluorescence of 2.64 z-score.
With `TTCCTTCTGCCTGTCCATTCGTGCTAG` the log fluorescence was 0.666 z-score.
For `GACGGTTTCGCTCTCGGGACGTGCTAG`, the log fluorescence was 5.65 z-score.
The log fluorescence of `TCATATCACTATTCTAGGACTGTGCTA` is reported as 2.64 z-score.
For `GAGGGTCTCGGTATCGGGACGTGCTAG`, the log fluorescence was 0.84 z-score.
For `TTAGGTATCGGGTATCAGTTAGTGCTA`, the log fluorescence was 4.82 z-score.
The log fluorescence of `TTACGTATCGGGTTTCGGTTAGTGCTA` is reported as 9.24 z-score.
With `TTAGATATCACTATCGATTAGTGCTAG` the log fluorescence was 8.98 z-score.

Single results of other studies
For `PhoQ, residues 284 288 289 292 302 303 SACGEM`, the fold induction was 9.21 (PhoP, residues 12 14 15 18 19 QYCSL (Escherichia coli, UniProt P23836); Sort-seq, measured: YFP reporter; E. coli; PhoQ-PhoP variant library, together with: 10 µM Mg2+; relative to: high Mg2+ state, higher = stronger signaling).
